Experimental data of several laboratories.
Chain of UniProt O75417 (whole entry, looked up): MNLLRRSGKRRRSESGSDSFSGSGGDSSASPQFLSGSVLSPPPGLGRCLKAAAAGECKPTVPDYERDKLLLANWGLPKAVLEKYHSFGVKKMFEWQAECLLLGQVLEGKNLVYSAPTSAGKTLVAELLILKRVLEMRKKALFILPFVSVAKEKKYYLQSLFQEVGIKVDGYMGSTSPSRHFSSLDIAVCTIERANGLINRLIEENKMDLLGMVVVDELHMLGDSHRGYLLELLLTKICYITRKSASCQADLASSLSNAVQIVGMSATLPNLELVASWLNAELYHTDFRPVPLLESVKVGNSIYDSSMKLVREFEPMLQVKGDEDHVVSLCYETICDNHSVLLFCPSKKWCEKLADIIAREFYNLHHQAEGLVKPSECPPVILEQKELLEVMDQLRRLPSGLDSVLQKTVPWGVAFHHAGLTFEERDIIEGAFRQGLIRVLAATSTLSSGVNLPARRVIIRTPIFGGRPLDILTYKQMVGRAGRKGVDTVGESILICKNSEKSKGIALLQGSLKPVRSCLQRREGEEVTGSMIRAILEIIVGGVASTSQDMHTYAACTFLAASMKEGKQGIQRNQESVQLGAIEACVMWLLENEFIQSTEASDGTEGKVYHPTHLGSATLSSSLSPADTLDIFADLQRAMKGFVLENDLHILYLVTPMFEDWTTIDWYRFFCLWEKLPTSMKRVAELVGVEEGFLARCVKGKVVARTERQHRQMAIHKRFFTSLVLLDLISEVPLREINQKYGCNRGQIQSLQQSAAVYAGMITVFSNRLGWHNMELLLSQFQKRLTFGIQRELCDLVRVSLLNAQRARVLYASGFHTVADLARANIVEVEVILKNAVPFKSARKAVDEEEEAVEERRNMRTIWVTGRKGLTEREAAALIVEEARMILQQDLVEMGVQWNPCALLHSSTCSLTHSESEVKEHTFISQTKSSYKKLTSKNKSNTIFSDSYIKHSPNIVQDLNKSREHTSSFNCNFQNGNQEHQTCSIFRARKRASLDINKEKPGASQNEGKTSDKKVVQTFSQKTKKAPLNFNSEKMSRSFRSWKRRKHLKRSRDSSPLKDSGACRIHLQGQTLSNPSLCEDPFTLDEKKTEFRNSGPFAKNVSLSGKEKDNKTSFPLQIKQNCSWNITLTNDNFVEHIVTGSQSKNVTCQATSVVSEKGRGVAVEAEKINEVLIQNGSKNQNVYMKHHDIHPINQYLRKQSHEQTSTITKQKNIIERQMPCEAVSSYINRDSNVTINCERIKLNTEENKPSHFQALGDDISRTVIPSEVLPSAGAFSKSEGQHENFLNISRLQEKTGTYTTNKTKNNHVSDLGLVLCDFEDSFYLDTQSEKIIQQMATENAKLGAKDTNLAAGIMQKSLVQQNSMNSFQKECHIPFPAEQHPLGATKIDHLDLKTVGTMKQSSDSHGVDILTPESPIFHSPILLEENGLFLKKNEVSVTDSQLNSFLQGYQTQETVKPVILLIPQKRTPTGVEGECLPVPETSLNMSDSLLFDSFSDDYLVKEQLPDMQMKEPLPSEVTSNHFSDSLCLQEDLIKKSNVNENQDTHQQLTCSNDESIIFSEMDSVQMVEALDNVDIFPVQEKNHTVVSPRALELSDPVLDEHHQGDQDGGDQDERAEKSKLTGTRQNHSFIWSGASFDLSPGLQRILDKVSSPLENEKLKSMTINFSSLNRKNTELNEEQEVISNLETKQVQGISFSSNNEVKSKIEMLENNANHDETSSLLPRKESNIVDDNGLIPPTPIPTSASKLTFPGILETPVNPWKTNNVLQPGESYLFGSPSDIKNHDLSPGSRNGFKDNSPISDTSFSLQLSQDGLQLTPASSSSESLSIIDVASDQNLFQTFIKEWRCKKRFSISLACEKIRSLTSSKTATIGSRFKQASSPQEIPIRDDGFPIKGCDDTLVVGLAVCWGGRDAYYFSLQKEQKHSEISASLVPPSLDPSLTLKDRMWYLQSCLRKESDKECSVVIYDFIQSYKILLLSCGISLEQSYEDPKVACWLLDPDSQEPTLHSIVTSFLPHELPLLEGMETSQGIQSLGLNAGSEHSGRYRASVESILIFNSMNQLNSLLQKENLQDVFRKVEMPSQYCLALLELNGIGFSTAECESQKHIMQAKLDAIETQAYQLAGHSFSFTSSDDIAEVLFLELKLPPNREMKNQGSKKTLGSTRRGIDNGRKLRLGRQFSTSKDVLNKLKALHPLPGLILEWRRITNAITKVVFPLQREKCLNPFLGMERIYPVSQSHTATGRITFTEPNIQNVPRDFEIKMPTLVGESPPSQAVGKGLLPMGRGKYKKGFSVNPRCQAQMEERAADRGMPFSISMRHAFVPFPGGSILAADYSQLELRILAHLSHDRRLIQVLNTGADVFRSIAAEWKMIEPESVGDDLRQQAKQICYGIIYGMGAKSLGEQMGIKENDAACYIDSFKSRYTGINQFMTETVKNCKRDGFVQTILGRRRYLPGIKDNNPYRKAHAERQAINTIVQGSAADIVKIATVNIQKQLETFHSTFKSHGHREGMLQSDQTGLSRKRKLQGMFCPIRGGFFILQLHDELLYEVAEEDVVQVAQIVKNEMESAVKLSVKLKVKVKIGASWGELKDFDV
Chain of UniProt Q8IU80 (whole entry, looked up): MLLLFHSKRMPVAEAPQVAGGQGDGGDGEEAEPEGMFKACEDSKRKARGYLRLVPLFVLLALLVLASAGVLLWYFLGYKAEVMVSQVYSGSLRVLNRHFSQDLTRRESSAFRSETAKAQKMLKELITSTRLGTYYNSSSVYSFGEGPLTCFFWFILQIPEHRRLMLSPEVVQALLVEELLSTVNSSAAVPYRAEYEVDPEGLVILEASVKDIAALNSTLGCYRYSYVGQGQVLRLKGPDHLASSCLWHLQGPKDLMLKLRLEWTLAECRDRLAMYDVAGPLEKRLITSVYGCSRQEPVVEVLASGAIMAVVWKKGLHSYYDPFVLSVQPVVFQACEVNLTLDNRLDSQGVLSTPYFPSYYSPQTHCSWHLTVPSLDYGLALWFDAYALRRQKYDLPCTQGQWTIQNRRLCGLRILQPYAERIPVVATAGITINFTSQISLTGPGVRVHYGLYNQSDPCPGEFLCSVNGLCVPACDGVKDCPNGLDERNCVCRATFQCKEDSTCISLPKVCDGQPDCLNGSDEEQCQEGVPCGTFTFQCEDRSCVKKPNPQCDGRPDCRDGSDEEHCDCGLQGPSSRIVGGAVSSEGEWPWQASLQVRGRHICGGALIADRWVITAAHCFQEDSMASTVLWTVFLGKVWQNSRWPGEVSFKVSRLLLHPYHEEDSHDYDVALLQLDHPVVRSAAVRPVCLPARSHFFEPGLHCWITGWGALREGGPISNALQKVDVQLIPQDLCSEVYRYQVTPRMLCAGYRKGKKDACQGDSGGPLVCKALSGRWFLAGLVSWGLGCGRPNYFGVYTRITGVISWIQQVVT
Chain of UniProt Q9HB29 (whole entry, looked up): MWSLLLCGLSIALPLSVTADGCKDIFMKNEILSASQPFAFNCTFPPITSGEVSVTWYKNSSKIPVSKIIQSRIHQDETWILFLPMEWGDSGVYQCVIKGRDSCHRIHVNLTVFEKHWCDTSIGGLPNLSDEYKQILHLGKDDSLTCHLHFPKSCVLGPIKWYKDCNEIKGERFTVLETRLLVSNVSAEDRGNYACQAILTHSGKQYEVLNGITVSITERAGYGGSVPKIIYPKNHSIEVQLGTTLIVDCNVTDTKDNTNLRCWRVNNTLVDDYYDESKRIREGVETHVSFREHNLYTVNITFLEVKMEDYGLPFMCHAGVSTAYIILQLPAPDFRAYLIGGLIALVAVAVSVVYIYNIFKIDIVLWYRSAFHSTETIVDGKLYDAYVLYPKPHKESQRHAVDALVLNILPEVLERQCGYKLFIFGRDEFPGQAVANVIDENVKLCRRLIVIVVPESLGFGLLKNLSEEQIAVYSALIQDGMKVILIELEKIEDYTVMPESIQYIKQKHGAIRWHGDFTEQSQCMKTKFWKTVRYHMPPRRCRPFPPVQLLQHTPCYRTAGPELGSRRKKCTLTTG
Chain of UniProt P45983 (whole entry, looked up): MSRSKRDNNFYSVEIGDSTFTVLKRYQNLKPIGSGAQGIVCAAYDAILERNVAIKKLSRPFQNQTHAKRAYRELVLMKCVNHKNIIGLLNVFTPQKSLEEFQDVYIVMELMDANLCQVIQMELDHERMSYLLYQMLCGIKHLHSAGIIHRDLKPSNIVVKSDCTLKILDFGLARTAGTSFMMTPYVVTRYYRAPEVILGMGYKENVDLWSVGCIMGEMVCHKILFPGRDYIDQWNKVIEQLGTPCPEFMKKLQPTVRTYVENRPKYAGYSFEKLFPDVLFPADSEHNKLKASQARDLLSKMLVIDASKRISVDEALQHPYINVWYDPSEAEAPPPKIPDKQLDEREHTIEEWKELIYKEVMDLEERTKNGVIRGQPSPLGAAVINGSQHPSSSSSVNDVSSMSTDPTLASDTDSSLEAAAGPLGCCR

Compound	target or system	test	system	setting	scale	endpoint	value
COc1ccc(NC(=O)Nc2ccc3c(c2)C(=O)N(C(C)CO)CC(C)C(CN(C)Cc2ccc4c(c2)OCO4)O3)cc1 (stereo not shown)	Tyrosine-protein kinase ABL1 (ABL1, Homo sapiens, UniProt P00519, M351T)	kinase activity		0.03 µM	relative to: control	remaining activity	108%
COC(=O)[C@@]1(C)C=C(C(=O)Nc2cccc(C(=O)Nc3ccc(Nc4nccc(-c5cccnc5)n4)c(C)c3)c2)C(=O)CC1	Mitogen-activated protein kinase 8 (MAPK8, Homo sapiens, UniProt P45983)	enzyme activity, inhibitor		0.02032 µM, 18 h, unit not given, added: GSH 10 mM pre-incubation	relative to: vehicle	remaining activity	0.557
CC(=O)Nc1ccc(C2CCCCC2)cc1		liver microsome stability	human liver microsomes	1 µM, without NADPH		hepatic clearance	18 mL/min/kg
Cc1cc(C(=O)Nc2nc3cccc(C)c3n2[C@H]2CCCCN(C(=O)/C=C/CN(C)C)C2)ccn1	CDC2-like kinase 1 (Trypanosoma brucei brucei, UniProt Q382U0)	kinase activity, ADP-Glo		0.1562 µM		remaining activity	40.6%
CN1CCC(c2ccc(-c3ccc([C@H]4[C@@H](F)[C@@H](F)C[C@@H](F)[C@H]4F)cc3)cn2)CC1		liver microsome stability	human liver microsomes	1 µM, without NADPH		hepatic clearance	9.2 mL/min/kg
C[C@](C(=O)NC1CCOCC1)(c1cncnc1)N(C(=O)[C@H](F)Cl)c1ccc(OC(F)(F)Cl)cc1	Transmembrane protease serine 6 (Homo sapiens, UniProt Q8IU80)	enzyme activity, inhibitor		10 µM		remaining activity	111%
O=C=[N][Ru-4]123([n]4c5ccc(O)cc5c5c6c(c7cc(F)c[n+]1c7c54)C(=O)NC6=O)[S+]1CC[S+]2CC[S+]3CC1 (stereo not shown)	Tyrosine-protein kinase ABL1 (ABL1, Homo sapiens, UniProt P00519, Y253F)	enzyme activity		100 nM, human enzyme, added: 10 µM ATP	relative to: untreated	remaining activity	120%
COc1ccccc1-c1ccncc1C(=O)Nc1nnc(OCc2ccc(Cl)cc2)s1	DNA polymerase theta, helicase domain (POLQ, Homo sapiens, UniProt O75417)	ATPase activity, ADP-Glo		0.95 µM	relative to: 0 µM cpd	remaining activity	19%
Nc1ncc(-c2cc(-c3cnn(CC(F)(F)F)c3)ncc2F)nc1C(=O)NC1CNCC(F)C1 (stereo not shown)	Microtubule-associated serine/threonine-protein kinase 3 (MAST3, Homo sapiens, UniProt O60307)	enzyme activity		1 µM	relative to: DMSO control	remaining activity	97.5%
CC(C)[C@@H]1NC(=O)[C@H](Cc2ccccc2)NC(=O)CSC[C@@H](C(N)=O)NC(=O)[C@H](CCC(=O)O)NC(=O)[C@H](CO)NC(=O)[C@H](Cc2c[nH]c3cccc(Cl)c23)NC(=O)[C@H](C2CCCCC2)NC(=O)[C@H](C(C)C)NC(=O)[C@H](Cc2ccc(O)cc2)NC(=O)[C@H](CC(=O)O)NC(=O)[C@H](Cc2c[nH]c3ccccc23)NC(=O)[C@H](Cc2ccc(N)nc2)NC(=O)[C@H](Cc2c[nH]c3ccc(Cl)cc23)NC(=O)[C@H](CCC(=O)O)NC1=O	Interleukin-1 receptor-like 2 (IL1RL2, Homo sapiens, UniProt Q9HB29)	reporter gene (SEAP), inhibitor, HEK-Blue IL-36R reporter	HEK-Blue IL-36R cells	11.11 µM, 6 h, added: IL-36β 1 ng/mL		remaining activity	36.9%

Excerpt of the above:
Compound	target or system	test	system	setting	scale	endpoint	value
Cc1cc(C(=O)Nc2nc3cccc(C)c3n2[C@H]2CCCCN(C(=O)/C=C/CN(C)C)C2)ccn1	CDC2-like kinase 1 (Trypanosoma brucei brucei, UniProt Q382U0)	kinase activity, ADP-Glo		0.1562 µM		remaining activity	40.6%
